Assay results of several laboratories.
Parts stem from different laboratories: compare values within a part only. Changes are numbered by the printed parent chain.

Study 1
Target: CCNA1, cyclin fold, Cln2 fusion (human)
Method: yeast growth competition, sequencing
Medium: yeast
Setting: weak parent motif
Baseline: not given
Direction: higher = stronger binding
Parent: PKMYT1 docking peptide (human); SFEPRNLLSLFED; partner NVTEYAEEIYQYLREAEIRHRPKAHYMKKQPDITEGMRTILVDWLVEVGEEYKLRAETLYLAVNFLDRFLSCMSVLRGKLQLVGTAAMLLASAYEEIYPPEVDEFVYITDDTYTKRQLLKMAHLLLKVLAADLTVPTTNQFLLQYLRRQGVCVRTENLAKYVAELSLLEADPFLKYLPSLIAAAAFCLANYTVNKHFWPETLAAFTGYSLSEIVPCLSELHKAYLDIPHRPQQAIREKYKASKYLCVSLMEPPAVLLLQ
Under “normalised enrichment score”, `L8E` is recorded as -1.12.
`S9T` — result for “normalised enrichment score”: 0.156.
For `F11G`, “normalised enrichment score” read 0.0412.
Under “normalised enrichment score”, `S1T` is recorded as 0.0632.
Under “normalised enrichment score”, `N6W` is recorded as 0.198.
`L10P` — result for “normalised enrichment score”: 0.216.
`R5M` — result for “normalised enrichment score”: 0.182.
For `S9Y`, “normalised enrichment score” read 0.3.

Study 2
Target: Fragile X messenger ribonucleoprotein 1, C-terminal low-complexity region (Fmr1, Mus musculus, UniProt P35922)
Method: RNA Bind-n-Seq
Molecule type: RNA
Medium: in vitro
Concentration: 200 nM
Setting: whole 134-nt RNA, ends assumed
Added: 150 mM KCl
Baseline: input library
Direction: higher = stronger binding
Constant ends, left off below: GGGAGUUCUACAGUCCGACGAUC … UGGAAUUCUCGGGUGUCAAGG
`AGUCCUGUGCUACACAUCGUAUGUACCGAAUCAAAUUUUUUUAAACCCAAACCCAAAAAAGUAUUAUGUUACGCCGUUCGGAUCUGCACU` gave a log2 enrichment of -0.168.
For `CUCAAGUCCUGUGCUACACAUCGUAUGUACCGAAUCGGCCGGGCCGGGGCCGGAAAGUAUUAUGUUACGCCGUUCGGAUCUGCACUUCCA`, the log2 enrichment was 0.0698.
With `UCCUCAAGUCCUGUGCUACACAUCGUAUGUACCGAAUCGGUGGUUUGGAGGAAAGUAUUAUGUUACGCCGUUCGGAUCUGCACUUCCAGC` the log2 enrichment was -0.361.
`GUCCUGUGCUACACAUCGUAUGUACCGAAUCGGAAAAAGGGAAAAAGGGGAAAAAGGGAAAGUAUUAUGUUACGCCGUUCGGAUCUGCAC` gave a log2 enrichment of -0.123.
The log2 enrichment of `AGUCCUGUGCUACACAUCGUAUGUACCGAAUCAAACCCCCAAACCCCCAAACCCAAAAAAGUAUUAUGUUACGCCGUUCGGAUCUGCACU` is reported as -0.302.
`UGGCCCUGGUGGCAUGCGGGGAGGAAGAGGUGGCCUCAUGGACCGUGGUGGUCCCGGUGGAAUGUUCAGAGGUGGCCGUGGUGGAGACAG` has a log2 enrichment of 0.103.
`UGGGAGGUGGAUUUUGUUUAUUUUUUUAGCUCAUUUCCAGGGGUGGGAAUUUUUUUUUAAUAUGUGUAAUGAAUAAAGUUGUUUUUGAAA` has a log2 enrichment of 0.145.

Study 3
Target: ABI1, truncated, D143A, DHFR fusion (Arabidopsis thaliana)
Method: DHFR PCA, deep sequencing
Medium: yeast
Setting: methotrexate growth selection, single substitutions
Added: (+)-ABA 0.11 µM
Baseline: wild-type fitted maximum
Direction: higher = stronger binding
Parent: PYL1, truncated, DHFR fusion (Arabidopsis thaliana); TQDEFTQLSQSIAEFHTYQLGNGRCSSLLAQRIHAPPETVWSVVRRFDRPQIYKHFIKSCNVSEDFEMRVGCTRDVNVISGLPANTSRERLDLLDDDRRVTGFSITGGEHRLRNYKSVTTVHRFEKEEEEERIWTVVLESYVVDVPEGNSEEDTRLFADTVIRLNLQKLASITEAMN; partner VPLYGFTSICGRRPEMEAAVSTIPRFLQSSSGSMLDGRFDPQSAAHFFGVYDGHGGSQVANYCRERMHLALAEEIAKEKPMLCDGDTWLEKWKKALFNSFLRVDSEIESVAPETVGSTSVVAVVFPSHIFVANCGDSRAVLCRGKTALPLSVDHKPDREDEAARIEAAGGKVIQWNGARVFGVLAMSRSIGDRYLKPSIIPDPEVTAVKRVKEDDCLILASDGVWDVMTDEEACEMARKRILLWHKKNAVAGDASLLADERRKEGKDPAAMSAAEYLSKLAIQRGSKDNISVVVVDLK
Under “relative binding score”, `F124R` is recorded as 0.745%.
Under “relative binding score”, `D159C` is recorded as -7.89%.
`I52K`: “relative binding score” 25.6%.
`T106M` — result for “relative binding score”: 38.2%.
`S26H`: “relative binding score” 19.9%.

Mixed results
The fold induction of `PhoQ, residues 284 288 289 292 302 303 QWGLFV` is reported as 10.9 (PhoP, residues 12 14 15 18 19 SQCLL (Escherichia coli, UniProt P23836); Sort-seq, refers to: YFP reporter; E. coli; PhoQ-PhoP variant library, added: 10 µM Mg2+; baseline: high Mg2+ state, higher = stronger signaling).

For quick reference, copied from above (study 3):
Under “relative binding score”, `D159C` is recorded as -7.89%.
`T106M` — result for “relative binding score”: 38.2%.
